Assay results of several laboratories.
Compare with care: the assays were run in different laboratories. ± gives the spread as reported.
Organism: Toxoplasma gondii

| SMILES | assay | test system | conditions | measurement | value |
| --- | --- | --- | --- | --- | --- |
| O=[N+]([O-])c1cccc(CSc2ncnc3c2ncn3C2CC(CO)C(O)C2O)c1 (stereo not shown) | parasite growth, radiolabelled uracil incorporation | RH wild type, tissue culture | – | IC50 | 19.7 ± 0.2 µM |
| N#CSCCOc1cccc(Oc2ccncc2)c1 | – | tachyzoites | – | IC50 | > 10 µM |
| Cc1ccc(CSc2ncnc3c2ncn3C2CC(CO)C(O)C2O)c(C)c1C (stereo not shown) | parasite growth, radiolabelled uracil incorporation | RH wild type, tissue culture | – | IC50 | 16.1 ± 1.2 µM |
| COc1ccccc1Oc1cccc(OCCSC#N)c1 | – | tachyzoites | – | IC50 | 2.79 ± 0.42 µM |
| OCC1CC(n2cnc3c(SCc4ccc(Cl)c(Cl)c4)ncnc32)C(O)C1O (stereo not shown) | parasite growth, radiolabelled uracil incorporation | RH wild type, tissue culture | – | IC50 | 14.4 ± 0.6 µM |
| CC(C)(C)c1nn(-c2cc(OCc3cn(Cc4ccc(C(F)(F)F)cc4)nn3)c(Cl)cc2Cl)c(=O)o1 | intracellular growth | HFF, Δppo PPO-complemented | 96 h | IC50 | 0.7 ± 0.1 µM |
| [N-]=[N+]=NCCOc1ccc(Oc2ccccc2)cc1 | – | tachyzoites | – | IC50 | > 10 µM |
| Cc1cccc(Cn2cc(COc3cc(-n4nc(C(C)(C)C)oc4=O)c(Cl)cc3Cl)nn2)c1 | intracellular growth | HFF, Δppo PPO-complemented | 96 h | IC50 | 0.9 ± 0.5 µM |
| CCC(=O)CCCCC[C@@H]1NC(=O)[C@H]2CCCCN2C(=O)[C@H]([C@@H](C)CC)NC(=O)[C@H](Cc2cn(OC)c3ccccc23)NC1=O | intracellular growth, [3H]uracil incorporation | HFF, RH wild type | 72 h | EC50 | 0.015 ± 0.002 µM |
| CC(=O)c1ccc(Cn2cc(COc3cc(-n4nc(C(C)(C)C)oc4=O)c(Cl)cc3Cl)nn2)cc1 | intracellular growth | HFF, Δppo PPO-complemented | 96 h | IC50 | 1.6 ± 0.5 µM |
| COc1ccc(CSc2ncnc3c2ncn3C2CC(CO)C(O)C2O)cc1 (stereo not shown) | parasite growth, radiolabelled uracil incorporation | RH wild type, tissue culture | – | IC50 | 12.1 ± 0.3 µM |
| CC(C)(C)C1=CC(=NNC(=O)c2ccc([N+](=O)[O-])cc2)C=C(C(C)(C)C)C1=O | – | ME49, Swiss-Webster mice | intraperitoneal, 5.0 mg/kg/day, 10 days dosing, 40 days observed | survival | 0% |
| Cc1ccc(S(=O)(=O)OCCOc2cccnc2)cc1 | – | tachyzoites | – | IC50 | > 10 µM |

Repeated from above:
| SMILES | assay | test system | conditions | measurement | value |
| --- | --- | --- | --- | --- | --- |
| O=[N+]([O-])c1cccc(CSc2ncnc3c2ncn3C2CC(CO)C(O)C2O)c1 (stereo not shown) | parasite growth, radiolabelled uracil incorporation | RH wild type, tissue culture | – | IC50 | 19.7 ± 0.2 µM |
